Measurements from different studies.
Lines come from different studies, so protocols differ. Numbers after ± are the reported error. Bridges are numbered along the chain shown (N, C = ends). Where no end group is shown, it is not given here.

Molecule	assay	system	setting	scale	endpoint	result
Cc1noc(C)c1-c1cnc2c(-c3ccc(C(=O)O)cc3)cn([C@@H](C)c3ccccn3)c2c1		mouse, Eµ-TCL1 adoptive transfer	oral, 20 mg/kg daily, until 150 days		median overall survival	93 days
COc1ccc2c(c1)c(CC(=O)O)c(C)n2C(=O)c1ccc(Cl)cc1	multiplex bead immunoassay, refers to: IL-1α	CD-1 mice, serum	ip, 20 mg/kg, three-injection regimen, added: LPS 3 mg/kg		cytokine level	433 ± 129 pg/mL
CC(=O)c1sc(NN=C2c3ccccc3-c3nc4cc(F)ccc4nc32)nc1C		mouse, STZ-induced diabetes	oral, 25 mg/kg, day 3		blood glucose	313 ± 4.9 mg/dL
CS/C(S)=N/CCCC[S+](C)[O-] (racemic)	RT-PCR, refers to: Gad2	rat, colon	oral gavage, 200 mg/kg, 96 h, dosed for four days	baseline: vehicle	mRNA fold change	9.18
CC1(C)CCC(c2ccc(Cl)cc2)=C(CN2CCN(c3ccc(C(=O)NS(=O)(=O)c4ccc(N[C@H](CCN5CCOCC5)CSc5ccccc5)c(S(=O)(=O)C(F)(F)F)c4)cc3)CC2)C1	cell kill, PI exclusion flow cytometry	CD21+ nodal neoplastic cells, human			EC50	> 5 µM
Cc1ccc(-c2nn(-c3ccccc3)cc2C=NNC2=NC(=O)C(=C3c4ccccc4-c4nc5cc(F)ccc5nc43)S2)cc1		mouse, STZ-induced diabetes	oral, 25 mg/kg, day 3		blood glucose	343 ± 52.8 mg/dL
CC12CCC(CC1)C(C)(C)O2	two-choice feeding trial	Sylvilagus nuttallii	1% dry weight in diet, 72 h, added: monoterpene mixture 1% dry weight		proportion of food consumed	96 ± 0.03%
CRWYDENAC (disulfide 1-9 (inferred)) (Cy7-labelled, cyclic, disulfide)	NIRF imaging	mouse, orthotopic HCCLM3 tumour	dose not given		time to peak fluorescence	24 h
Oc1cc2c(cc1O)C(c1ccccc1)CNCC2 (stereo not shown)	five-choice serial reaction time task	male Lister hooded rat, low performers	intraperitoneal, 3 mg/kg		accuracy	69.4 ± 0.91%
CC[C@H](C)[C@@H]1NC(=O)[C@H](CCCNC(=N)N)NC(=O)[C@H](CC(=O)O)NC(=O)[C@H]([C@@H](C)CC)NC(=O)[C@H](CCCCN)NC(=O)[C@H](Cc2c[nH]cn2)NC(=O)CNC(=O)[C@H](Cc2ccccc2)NC(=O)[C@@H](NC(=O)[C@H](CO)NC(=O)[C@H](CO)NC(=O)[C@@H](NC(=O)[C@H](Cc2c[nH]cn2)NC(=O)[C@@H](NC(=O)[C@@H](NC(=O)[C@H](CCCCN)NC(=O)[C@H](CO)NC(=O)[C@@H](N)CC(N)=O)C(C)C)[C@@H](C)O)[C@@H](C)CC)CSSC[C@@H](C(=O)N[C@@H](CC(N)=O)C(=O)N[C@@H](C)C(=O)N[C@@H](CC(C)C)C(=O)N[C@@H](CCCCN)C(=O)O)NC(=O)CNC(=O)[C@H](CC(C)C)NC(=O)[C@H](CCCNC(=N)N)NC(=O)[C@H](CO)NC(=O)[C@H](C(C)C)NC(=O)[C@H](CO)NC(=O)CNC1=O		C57BL/6J mouse, normotensive, anaesthetised	intravenous bolus, 1.67 nmol/g body weight		time to maximal vasorelaxation	3.3 ± 1.2 min
O=C(NC[C@H]1CN(c2ccc(N3CCOCC3=O)cc2)C(=O)O1)c1ccc(Cl)s1		human, mild renal impairment, plasma	oral, 10 mg, added: erythromycin at steady state	baseline: normal renal function, compound alone	prothrombin time AUC(0-48h) increase	~75%
CC(C)C[C@H](NC(=O)[C@H](CO)NC(=O)[C@H](CCCNC(=N)N)NC(=O)[C@H](CC(=O)O)NC(=O)[C@H](CCC(=O)O)NC(=O)[C@H](C)NC(=O)[C@@H]1CCCN1C(=O)[C@H](C)NC(=O)[C@H](CCC(=O)O)NC(=O)[C@@H]1CCCN1C(=O)[C@@H]1CCCN1)C(N)=O	HPLC-EC	F344 rat, normal, striatum, wet tissue, both hemispheres	intranasal, 100 µg, 5 days/week for 3 weeks		dopamine level	9040 ± 1430 ng/g
CC[C@H](C)[C@H](NC(=O)[C@H](C)NC(=O)[C@H](CCCNC(=N)N)NC(=O)[C@H](Cc1c[nH]c2ccccc12)NC(=O)[C@H](CCC(N)=O)NC(=O)[C@@H](N)C(C)C)C(=O)N[C@@H](CCCNC(=N)N)C(=O)N[C@H](C(=O)N[C@@H](CCCNC(=N)N)C(=O)N[C@H](C(=O)N[C@H](C(=O)N[C@@H](CCCNC(=N)N)C(N)=O)[C@@H](C)CC)C(C)C)C(C)C	carboxyfluorescein release	EYPC vesicles	10 µg/mL, 250 s, pH 7.4, 25 °C	baseline: Triton X-100	leakage	1%
Cc1c(C(=O)NN2CCCCC2)nn(-c2ccc(Cl)cc2Cl)c1-c1ccc(Cl)cc1		rat, diet-induced obese, plasma	peripheral, 10 mg/kg per day, 6 days		free fatty acid level	0.95 ± 0.14 mmol/L
CC(C)NCCCC[C@H](NC(=O)[C@H]1CCC(=O)N[C@@H](Cc2ccccc2)C(=O)N[C@@H](Cc2ccc(O)cc2)C(=O)N[C@@H](CCCCNC(C)C)C(=O)N[C@H](CCCNC(=N)N)C(=O)N[C@@H](Cc2ccc3ccccc3c2)C(=O)NCC(=O)N1)C(N)=O		metastatic renal cell carcinoma patients	subcutaneous, 20 mg/day, second cycle, added: sunitinib	baseline: baseline	maximum CD34+ cell count	24.5 fold
CCOC(=O)[C@H](C)C[C@@H](Cc1ccc(-c2ccccc2)cc1)NC(=O)CCC(=O)O		female C57BL/6JRj mice	oral, 0.7 nmol/g, 10 min, added: amino acids 34 mg oral	baseline: vehicle	increase in glucagon response	41%
CC(C)[C@H](NC(=O)[C@@H]1CSSC[C@H](NC(=O)[C@H](CC(=O)O)NC(=O)[C@@H]2CCCN2C(=O)[C@@H](NC(=O)[C@@H](N)CCC(=O)O)[C@@H](C)O)C(=O)N[C@@H](Cc2ccccc2)C(=O)N[C@@H](Cc2c[nH]c3ccccc23)C(=O)N[C@@H](CCCCN)C(=O)N[C@@H](Cc2ccc(O)cc2)C(=O)N1)C(=O)O		male Wistar rats, anaesthetised	intracavernous, 0.1 nmol per rat		ICP increase AUC	8.75 ± 2.6 mmHg·s
CCCCCSc1nnc(COc2ccc3c(c2)NC(=O)CC3)o1	forced swimming test	mice	40 mg/kg, 0.5 h	baseline: control	immobility duration decrease	32.5%
CCOc1ccc(Cc2cc([C@@H]3O[C@H](SC)[C@@H](O)[C@H](O)[C@H]3O)ccc2Cl)cc1		healthy Chinese subjects	oral, 200 mg once daily, 24 h, day 8		urinary glucose excretion	38.3 g
CSc1ccc(C(=O)/C=C/c2cc(C)c(OC(C)(C)C(=O)O)c(C)c2)cc1	hepatic PPAR target gene induction	Sprague Dawley rats, diet-induced dyslipidemia, liver	added: ACC inhibitor		dose	≥ 3 mg/kg

Molecule	assay	system	setting	scale	endpoint	result
CO[C@H]1/C=C\C=C(/C)C(=O)NC2=CC(=O)C(NCCN(C)C)=C(C[C@@H](C)C[C@H](OC)[C@H](O)[C@@H](C)/C=C(\C)[C@@H]1OC(N)=O)C2=O	western blot, refers to: LCK	human, PBMC			dose	≥ 40 mg/m²
COc1ccc(Cl)cc1C(=O)NCCc1ccc(S(=O)(=O)NC(=O)NC2CCCCC2)cc1		STZ-induced diabetic rat, liver	oral, 0.5 mg/kg, day 28		catalase activity	39.1 ± 2.11 U/mg protein
Polymyxin B		human whole blood	50 ng/mL, 4 h, 37 °C, added: E. coli LPS 0.5 ng/mL	baseline: LPS without compound	TNF-α release	12.6 ± 5.9%
insulin glargine		female Sprague-Dawley rat, blood	sc, 15 U/kg, 6 weeks		HbA1c	4.46 ± 0.04%
AGEDPHGYFLPGQFA		peptide, C57BL/6J mouse, zymosan peritonitis	ip, 0.32 ng/kg, 4 h after zymosan, dosed 1 h before zymosan		peritoneal monocytes	300000 cells
CC(=O)Nc1cccc(OCc2nnc(SCc3ccccc3F)o2)c1	forced swimming test	mice	40 mg/kg, 0.5 h	baseline: control	immobility duration decrease	45.6%
VQWRAIRVRVIR	carboxyfluorescein release	peptide, EYPG vesicles	10 µg/mL, 250 s, pH 7.4, 25 °C	baseline: Triton X-100	leakage	8%
CC(C)n1nc(-c2ccc3oc(N)nc3c2)c2c(N)ncnc21	immunofluorescence, refers to: YB1, vimentin, CD44, MTA1	Pten L/L mouse, prostate PIN lesion epithelium	dose not given		protein level	decreased
CC(=O)Nc1cccc(OCc2nnc(SCc3cccc(F)c3)o2)c1	forced swimming test	mice	40 mg/kg, 0.5 h	baseline: control	immobility duration decrease	42.2%
CCOc1ccc(-c2nc(-c3cccc4c3CCC4NCCO)no2)cc1OCC (stereo not shown)	blood CD4+ cell count reduction, flow cytometry	mouse	intraperitoneal, 5 h		ED50	0.5 mg/kg
COc1ccccc1Oc1c(NS(=O)(=O)c2ccc(C(C)(C)C)cc2)nc(-c2ncccn2)nc1OCCO		human	dose not given		mean pulmonary arterial pressure	63 mmHg
CCCCCCCCCCCCCCCC(=O)NCCCC[C@H](NC(=O)[C@H](CCC(=O)O)NC(=O)[C@H](CCC(=O)O)NC(=O)[C@H](Cc1ccc(O)cc1)NC(=O)[C@H](CCC(=O)O)NC(=O)CCCCCNC(=S)Nc1ccc2c(c1)C(=O)OC21c2ccc(O)cc2Oc2cc(O)ccc21)C(=O)N[C@@H](Cc1ccc(O)cc1)C(=O)N[C@@H](CCC(=O)O)C(=O)NCC(=O)NCC(=O)NCC(=O)NCC(=O)N[C@@H](CO)C(=O)NCC(=O)NCC(=O)NCC(=O)NCC(=O)N[C@@H](CO)C(=O)N[C@@H](Cc1ccccc1)C(=O)N[C@@H](CC(N)=O)C(=O)N1CCC[C@H]1C(=O)N[C@@H](CCCNC(=N)N)C(=O)N[C@@H](Cc1c[nH]cn1)C(=O)NC(C)(C)C(=O)N[C@@H](CCC(=O)O)C(=O)NCC(=O)N[C@H](C(=O)N[C@@H](Cc1ccccc1)C(=O)N[C@H](C(=O)N[C@@H](CO)C(=O)N[C@@H](CC(=O)O)C(=O)N[C@H](C(=O)N[C@@H](CO)C(=O)N[C@@H](CO)C(=O)N[C@@H](Cc1ccc(O)cc1)C(=O)N[C@@H](CC(C)C)C(=O)N[C@@H](CCC(=O)O)C(=O)NCC(=O)N[C@@H](CCC(N)=O)C(=O)N[C@@H](C)C(=O)N[C@@H](C)C(=O)N[C@@H](CCCCN)C(=O)N[C@@H](CCC(=O)O)C(=O)N[C@@H](Cc1ccccc1)C(=O)N[C@H](C(=O)N[C@@H](C)C(=O)N[C@@H](Cc1c[nH]c2ccccc12)C(=O)N[C@@H](CC(C)C)C(=O)N[C@H](C(=O)N[C@@H](CCCCN)C(=O)NCC(=O)N[C@@H](CCCNC(=N)N)C(=O)NCC(=O)O)C(C)C)[C@@H](C)CC)C(C)C)[C@@H](C)O)[C@@H](C)O		db/db mouse	subcutaneous, 150 nmol/kg, 0.5 h before glucose, AUC 0-120 min, added: oral glucose 2.0 g/kg	baseline: saline	glucose reduction	62.7%
Cc1cc(C)c(/C=C2\C(=O)Nc3ccccc32)[nH]1	MRI, enhancing lesion	human	concentration not given, 1.4 months		tumour area	4.4 cm²
CC(=O)Nc1cccc(OCc2nnc(SCc3ccc(Cl)cc3)o2)c1	forced swimming test	mice	40 mg/kg, 0.5 h	baseline: control	immobility duration decrease	58.9%
CN(CCOc1ccc(CC2SC(=O)NC2=O)cc1)c1ccccn1 (stereo not shown)		human liver microsomes	added: 2.5 µM sulfaphenazole		K'	205 µM
CC(C)n1cnc(-c2ccc(F)cc2)c1-c1ncc(C(=O)Nc2ccc(N3CCN(C)CC3)cc2)[nH]1		IPF patients	60 mg once daily, week 12, least-squares mean		FVC change from baseline	2.82%
C[C@H]1C[C@H]2CSC(N)=N[C@@]2(c2nc(NC(=O)c3ccc(OC(F)F)cn3)cs2)CO1	refers to: CSF Aβ1–42	healthy adults	275 mg once daily, 14 days, day 15	baseline: placebo-adjusted baseline	change from baseline	-92.9%
Cn1cnc2ncn(Cc3nc(CCc4ccc(Cl)cc4)no3)c(=O)c21		mouse, CFA inflammation, saphenous skin-nerve preparation	11 µM, 48 h, added: forces above 100 mN	baseline: DMSO vehicle	reduction of C-fibre firing	59%
CN1CCN(c2ccc(Nc3ncc4cc(C#N)c(=O)n(C5CCCC5)c4n3)cc2)CC1	MSD immunoassay	mouse with intracerebral U87 tumour, brain tumour	intravenous, 25 mg/kg, 1 h after gefitinib, added: gefitinib 200 mg/kg oral		p-Erk suppression AUC below baseline	274 %·h
NCC(=O)Nc1cncc(-c2nn3c(=O)cc(N4CCNCC4)nc3s2)c1	ADP-induced platelet aggregation, inhibitor, sigmoidal Emax model	human, whole blood	added: ADP 20 µM		EC50	0.0339 µg/mL

For quick reference, copied from above:
Molecule	assay	system	setting	scale	endpoint	result
CCOC(=O)[C@H](C)C[C@@H](Cc1ccc(-c2ccccc2)cc1)NC(=O)CCC(=O)O		female C57BL/6JRj mice	oral, 0.7 nmol/g, 10 min, added: amino acids 34 mg oral	baseline: vehicle	increase in glucagon response	41%
CC(C)[C@H](NC(=O)[C@@H]1CSSC[C@H](NC(=O)[C@H](CC(=O)O)NC(=O)[C@@H]2CCCN2C(=O)[C@@H](NC(=O)[C@@H](N)CCC(=O)O)[C@@H](C)O)C(=O)N[C@@H](Cc2ccccc2)C(=O)N[C@@H](Cc2c[nH]c3ccccc23)C(=O)N[C@@H](CCCCN)C(=O)N[C@@H](Cc2ccc(O)cc2)C(=O)N1)C(=O)O		male Wistar rats, anaesthetised	intracavernous, 0.1 nmol per rat		ICP increase AUC	8.75 ± 2.6 mmHg·s
CCCCCSc1nnc(COc2ccc3c(c2)NC(=O)CC3)o1	forced swimming test	mice	40 mg/kg, 0.5 h	baseline: control	immobility duration decrease	32.5%
